Results from different studies.
Protocols differ between the studies behind these lines.
Cell line: DU-145

SMILES | test | test system | conditions | quantity | value
COc1ccc2c(c1)[nH]c1c(C)nccc12 | bisulfite pyrosequencing, measured: RASSF1A promoter CpG site 23 | – | 10 µM, 16 h | DNA methylation | 92.9%
Cn1cncc1C1=CN(c2ncnc3[nH]cnc23)CCS1 | – | – | prostate cancer | CC50 | > 200000 nM
COc1c(CCC[P+](c2ccccc2)(c2ccccc2)c2ccccc2)cc2c(c1OC)OCO2.[I-] | SRB | – | – | TGI | > -4 log M
CCN(CC)c1ccc(C=NNC(=O)CSc2nc3ccccc3c(=O)n2Cc2ccc(S(N)(=O)=O)cc2)c(O)c1 | NCI five-dose screen | – | – | CC50 | > 100000 nM
Nc1ncc(-c2nc(N3CCOCC3)nc(N3CCOCC3)n2)c(C(F)F)n1 | – | – | 72 h | GI50 | 59 nM
CN1CCN(C2(CNC3CCN(c4cccc(-c5cc6cc(F)ccc6[nH]5)c4)CC3)CCC2)CC1 | – | – | – | GI50 | 1570 nM
COc1cc(CCC[P+](c2ccccc2)(c2ccccc2)c2ccccc2)c(OC)c2c1OCO2.[I-] | SRB | – | – | GI50 | -5.49 log M
CC(C)N1CCC(NC2CCN(c3cccc(-c4cc5cc(F)ccc5[nH]4)c3)CC2)CC1 | – | – | – | GI50 | 1720 nM
COc1c(C)c2c(c(O)c1C/C=C(\C)CCC(=O)O)C(=O)OC2 | cell proliferation | prostate cancer | – | IC50 | 631 nM

Some of these lines once more:
SMILES | test | test system | conditions | quantity | value
CC(C)N1CCC(NC2CCN(c3cccc(-c4cc5cc(F)ccc5[nH]4)c3)CC2)CC1 | – | – | – | GI50 | 1720 nM
